Measurements from different studies.
Protocols differ between the studies behind these lines. Values joined by “and” are separate records of one study, mostly repeats; a detail may differ. ± gives the spread as reported. ≈ marks a conversion by molar mass, not a printed value.
UniProt Q16512, sequence (whole entry, looked up): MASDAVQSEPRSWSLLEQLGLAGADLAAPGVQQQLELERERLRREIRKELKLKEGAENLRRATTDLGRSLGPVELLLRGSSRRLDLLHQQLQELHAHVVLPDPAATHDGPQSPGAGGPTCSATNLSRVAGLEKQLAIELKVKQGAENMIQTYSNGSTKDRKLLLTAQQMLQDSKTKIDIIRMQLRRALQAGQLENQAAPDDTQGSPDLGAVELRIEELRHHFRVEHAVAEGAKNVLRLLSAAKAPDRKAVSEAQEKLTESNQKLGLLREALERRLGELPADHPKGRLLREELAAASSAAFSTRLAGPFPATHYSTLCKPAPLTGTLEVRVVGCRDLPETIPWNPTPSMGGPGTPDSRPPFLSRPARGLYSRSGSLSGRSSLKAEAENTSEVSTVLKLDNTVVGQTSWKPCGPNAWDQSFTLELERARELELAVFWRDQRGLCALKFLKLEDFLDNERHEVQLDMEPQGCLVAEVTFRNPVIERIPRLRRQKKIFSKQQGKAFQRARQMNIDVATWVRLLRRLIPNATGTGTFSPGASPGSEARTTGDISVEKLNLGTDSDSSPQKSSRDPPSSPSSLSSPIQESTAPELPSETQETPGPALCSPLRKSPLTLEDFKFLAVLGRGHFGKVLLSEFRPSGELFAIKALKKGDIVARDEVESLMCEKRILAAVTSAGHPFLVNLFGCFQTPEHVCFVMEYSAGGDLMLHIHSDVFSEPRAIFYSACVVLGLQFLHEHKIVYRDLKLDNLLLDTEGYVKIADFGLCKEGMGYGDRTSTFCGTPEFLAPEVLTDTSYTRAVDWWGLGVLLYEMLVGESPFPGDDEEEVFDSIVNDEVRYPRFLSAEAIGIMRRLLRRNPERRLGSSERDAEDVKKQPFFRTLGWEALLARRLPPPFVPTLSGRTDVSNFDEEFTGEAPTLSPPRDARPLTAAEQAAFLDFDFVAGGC

Cc1nc(Nc2ccc(CC(=O)O)cc2)nc(Nc2ccc(F)c(C(F)(F)F)c2)c1C — inguinal white adipose weight (C57BL/6J mouse, high-fat diet MASH model; intraperitoneal, 0.3 mg/kg daily, 60% fat diet for 12 weeks, dosed final four weeks; baseline: untreated): decreased
CN(C)C(=O)c1cc2cnc(Nc3ccc(N4CCNCC4)cn3)nc2n1C1CCCC1 — median PFS2 (HR+/HER2− advanced breast cancer patients; dose not given, prior metastatic chemotherapy): 46.5 months
C[C@H]1O[C@@H](O[C@H]2CC[C@@]3(C)[C@@H](CC[C@]4(C)[C@@H]3C=C[C@]35OC[C@@]6(CCC(C)(C)C[C@H]63)[C@@H](O)C[C@]54C)[C@]2(C)CO)[C@H](O)[C@@H](O[C@@H]2O[C@H](CO)[C@@H](O)[C@H](O)[C@H]2O)[C@H]1O — total cholesterol (Mus musculus, pair-fed, AAV8-TBG-Null vector, plasma; oral, high dose, 5 h): 2.37 mM and 2.57 mM and 2.03 mM and 2.54 mM and 3.06 mM
CSCC[C@@H]1NC(=O)[C@H](Cc2c[nH]c3ccccc23)NC(=O)[C@@H](NC(=O)CCNC(=O)[C@H](CCC(N)=O)NC(=O)[C@@H]2CCCN2C(=O)[C@@H]2CCCN2C(=O)[C@H](CCCNC(=N)N)NC(=O)[C@H](CCCNC(=N)N)NC(=O)[C@H](CCCNC(=N)N)NC(=O)[C@H](CCC(N)=O)NC(=O)[C@H](CCCNC(=N)N)NC(=O)[C@H](CCCNC(=N)N)NC(=O)[C@H](CCCCN)NC(=O)[C@H](CCCCN)NC(=O)[C@H](CCCNC(=N)N)NC(=O)CN)CSSC[C@@H](C(=O)O)NC(=O)[C@H]([C@@H](C)O)NC(=O)CNC(=O)[C@H](CC(C)C)NC(=O)[C@H](Cc2c[nH]cn2)NC(=O)[C@H](CCCNC(=N)N)NC(=O)[C@@H]2CCCN2C(=O)[C@H](CO)NC1=O — CK2α staining (immunohistochemistry, item: CSNK2A1; NCI-H226 xenograft mouse, tumour tissue; intravenous, 2 mg/kg, day 16): 0.095 ± 0.021 IOD/area
COC(=O)c1c(-c2cc(OC)c(OC)c(OC)c2)c2ccc(OCc3ccccn3)cc2c(=O)n1-c1ccc(N)cc1 — IC50 (Plasmodium falciparum; HB3): 2.51 µM
N=C(N)NCCC[C@H](NC(=O)CCCCCNC(=O)[C@H](CCCNC(=N)N)NC(=O)[C@H](CCCNC(=N)N)NC(=O)CCCCCNC(=O)[C@H](CCCNC(=N)N)NC(=O)[C@H](CCCNC(=N)N)NC(=O)CCCCCNC(=O)[C@H](CCCNC(=N)N)NC(=O)[C@H](CCCNC(=N)N)NC(=O)CCCCCNC(=O)[C@@H](N)CCCNC(=N)N)C(=O)NCCCCCC(=O)NCCC(=O)O — MIC (broth microdilution; 29213, Mueller-Hinton broth; 16 to 18 h, 37 °C): 96 µM (≈ 183 µg/mL)
C[C@H]1CN(c2n[nH]c3nc(N[C@H]4CC[C@H](NS(=O)(=O)CCC(F)(F)F)CC4)ncc23)CCO1 — relative abundance (PKN1 (Homo sapiens, UniProt Q16512); inhibitor, Kinobeads competition profiling; 0.032 µM; baseline: vehicle): 0.98
CCCCC1(CCCC)CN(c2ccccc2)c2cc(SC)c(OCC(=O)N[C@@H](C(=O)NCC(=O)O)c3ccccc3)cc2S(=O)(=O)C1 — serum HDL-C (item: HDL cholesterol; human, serum; 10 mg once daily, day 8): 49 mg/dL
Oc1c(Br)cc(Br)cc1Oc1ccc(Br)cc1Br — Vmax/Km (sulfonation; human liver cytosol): 179 ± 29.6 µL/min/mg
[131I-].[Na+] — biochemical incomplete response (ATA response criteria; human, papillary thyroid cancer with metastases; 3700 MBq): 13.4%
CC[C@]1(O)C[C@H]2CN(CCc3c([nH]c4ccccc34)[C@@](C(=O)OC)(c3cc4c(cc3OC)N(C=O)[C@H]3[C@@](O)(C(=O)OC)[C@H](OC(C)=O)[C@]5(CC)C=CCN6CC[C@]43[C@@H]65)C2)C1 — IC50 (Plasmodium falciparum; GB4): 3.16 µM
CS(=O)(=O)c1ccc(-c2nnc(/C=C/c3nnc(-c4ccc(C#N)cc4)o3)n2-c2ccccc2Cl)nc1 — normalized enrichment score (RNA-seq GSEA, item: HALLMARK_MYC_TARGETS_V1; organoids, small intestinal, Apc Q1405X, mouse; dose not given, knockout organoids; baseline: DMSO, direction not given): -2.65
C=CCNc1c(O)cc2c(O)c1C[C@@H](C)C[C@H](OC)[C@H](O)[C@@H](C)/C=C(\C)[C@H](OC(N)=O)[C@@H](OC)/C=C\C=C(/C)C(=O)N2 — median time to tumour progression (patients with STS, GIST or other tumours; dose not given): 10.6 weeks
Nc1ccc(O)c(C(=O)O)c1 — body weight reduction (mouse, DSS-induced colitis; oral, 100 mg/kg daily, day 8): -16.1%
c1cncc([C@@H]2CCCN2)c1 — drug-lever responding (drug discrimination acquisition; drug-naive rat; 5 mg/kg, versus beta-nicotine): 33%
CC[C@H](C)[C@@H]1NC(=O)[C@@H]2CCCN2C(=O)[C@H](CC(C)C)NC(=O)[C@H](CC(C)C)NC(=O)CNC(=O)[C@@H](NC(=O)[C@@H](NC(=O)[C@H](CC(=O)O)NC(=O)CNC(=O)[C@@H](NC(=O)[C@H](C)NC(=O)CNC(=O)[C@H](CCCCN)NC(=O)[C@H](CC(C)C)NC(=O)[C@H](CC(C)C)NC(=O)[C@H](CCCCN)NC(=O)CNC(=O)[C@@H](NC(=O)[C@@H](N)CC(C)C)C(C)C)C(C)C)C(C)C)CSSC[C@@H](C(=O)O)NC1=O — log2 fold change (RNA-seq, item: Slc15a3; mouse, traumatic brain injury model, frontal cortex and hippocampus; dose not given; baseline: TBI alone): -2.61
C[N+](C)(C)CCOP(=O)(O)OP(=O)([O-])OC[C@H]1O[C@@H](n2ccc(N)nc2=O)[C@H](O)[C@@H]1O — log2 fold change (binding, MIDAS equilibrium dialysis LC-MS; A2AR-BRIL thermostabilized; concentration not given; baseline: no-protein control): -0.223
CN1CCN(S(=O)(=O)c2cc([N+](=O)[O-])ccc2N(CCOS(C)(=O)=O)CCOS(C)(=O)=O)CC1 — EFS delay (T-C) (NSG mice, sample BH PDX; intraperitoneal, 25 mg/kg weekly x3; baseline: vehicle): 51.9 days
Clc1cc2c(cc1Cl)Oc1cc(Cl)c(Cl)cc1O2 — mRNA level (RNA-Seq, item: Ptgir; female Sprague-Dawley rat, liver; 10 µg/kg; baseline: vehicle): 1.7 fold
CC[C@H](C)[C@@H]1NC(=O)[C@H](Cc2ccc(O)cc2)NC(=O)[C@H](CC(=O)O)NC(=O)CCc2cccc3c2Oc2c(cccc2-3)CCNC(=O)[C@H](CC(=O)O)NC(=O)[C@H](CC(=O)O)NC(=O)[C@H](CCCCN)NC1=O — arthritis score (DBA/1 mice, collagen-induced arthritis; intravenous, 1 mg/kg, 5 doses every other day, 22 days; baseline: untreated control): decreased
CO[C@H]1C[C@@H]2CC[C@@H](C)[C@@](O)(O2)C(=O)C(=O)N2CCCC[C@H]2C(=O)O[C@H]([C@H](C)C[C@@H]2CC[C@@H](OC(=O)NCCOCCOCCOCCOCCOCCOCCOCCOCCC(=O)N3CCc4cc(Cn5nc(-c6ccc7oc(N)nc7c6)c6c(N)ncnc65)ccc4C3)[C@H](OC)C2)C[C@@H](O)[C@H](C)/C=C(\C)[C@@H](O)[C@@H](OC)C(=O)[C@H](C)C[C@H](C)/C=C/C=C/C=C/1C — anaemia incidence (patients with advanced solid tumours; intravenous, 10 mg weekly, grade 3 or higher): 0%
C[C@]1(CO)Cc2ncn(-c3ccc(C#N)c(Cl)c3)c2C(=O)O1 — urinary sodium excretion Ae(0-24h) (human; 40 mg single dose): 298 mmol
O=C(O)Cc1c[nH]cn1 — log2 fold change (binding, MIDAS equilibrium dialysis LC-MS; A2AR-BRIL thermostabilized; concentration not given; baseline: no-protein control): -0.168
O=C(c1ccc(C#Cc2cccc(F)c2)nc1)N1CCC(O)CC1 — population spike amplitude (rat hippocampal CA3 slices; 10 µM, 10 min, spontaneous epileptiform activity; baseline: baseline): 99.4 ± 3.9%

For quick reference, copied from above:
Nc1ccc(O)c(C(=O)O)c1 — body weight reduction (mouse, DSS-induced colitis; oral, 100 mg/kg daily, day 8): -16.1%
